Results of several laboratories.
Every numbered part comes from another study and shows a few of its results, in no order. Several values in a cell are separate wells, animals, samples, runs or records.
Sequence of UniProt Q16539 (whole entry, looked up): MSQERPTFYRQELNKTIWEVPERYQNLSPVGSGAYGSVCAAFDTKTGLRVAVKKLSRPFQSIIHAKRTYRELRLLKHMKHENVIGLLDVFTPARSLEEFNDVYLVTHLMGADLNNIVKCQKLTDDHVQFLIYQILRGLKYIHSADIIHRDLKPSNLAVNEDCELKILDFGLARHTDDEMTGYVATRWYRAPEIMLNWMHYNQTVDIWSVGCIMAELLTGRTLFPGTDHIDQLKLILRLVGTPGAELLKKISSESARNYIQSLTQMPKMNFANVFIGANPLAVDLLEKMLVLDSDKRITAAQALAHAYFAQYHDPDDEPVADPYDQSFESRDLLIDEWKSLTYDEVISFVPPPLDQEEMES
Sequence of UniProt P51956 (whole entry, looked up): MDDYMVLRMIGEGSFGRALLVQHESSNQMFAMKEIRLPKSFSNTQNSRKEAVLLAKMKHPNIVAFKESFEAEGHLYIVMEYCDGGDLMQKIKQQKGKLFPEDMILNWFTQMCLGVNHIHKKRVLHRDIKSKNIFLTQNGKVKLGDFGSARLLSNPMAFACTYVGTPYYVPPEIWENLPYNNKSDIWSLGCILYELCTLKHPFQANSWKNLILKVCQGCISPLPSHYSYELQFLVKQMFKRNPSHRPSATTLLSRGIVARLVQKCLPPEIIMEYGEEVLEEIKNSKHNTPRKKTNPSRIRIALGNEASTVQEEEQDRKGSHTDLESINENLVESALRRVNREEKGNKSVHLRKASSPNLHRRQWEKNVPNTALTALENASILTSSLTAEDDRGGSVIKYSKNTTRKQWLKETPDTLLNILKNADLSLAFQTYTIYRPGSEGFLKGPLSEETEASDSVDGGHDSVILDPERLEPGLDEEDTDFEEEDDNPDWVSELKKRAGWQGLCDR
Sequence of UniProt P61075 (whole entry, looked up): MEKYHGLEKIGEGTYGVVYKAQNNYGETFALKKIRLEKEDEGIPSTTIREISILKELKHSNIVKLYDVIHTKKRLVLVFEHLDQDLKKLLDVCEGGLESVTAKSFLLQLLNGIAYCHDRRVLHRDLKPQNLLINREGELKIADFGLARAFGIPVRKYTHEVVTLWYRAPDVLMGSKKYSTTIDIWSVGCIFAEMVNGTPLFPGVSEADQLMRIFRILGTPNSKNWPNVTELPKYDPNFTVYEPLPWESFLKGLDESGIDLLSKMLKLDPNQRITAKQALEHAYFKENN
Sequence of UniProt Q16832 (whole entry, looked up): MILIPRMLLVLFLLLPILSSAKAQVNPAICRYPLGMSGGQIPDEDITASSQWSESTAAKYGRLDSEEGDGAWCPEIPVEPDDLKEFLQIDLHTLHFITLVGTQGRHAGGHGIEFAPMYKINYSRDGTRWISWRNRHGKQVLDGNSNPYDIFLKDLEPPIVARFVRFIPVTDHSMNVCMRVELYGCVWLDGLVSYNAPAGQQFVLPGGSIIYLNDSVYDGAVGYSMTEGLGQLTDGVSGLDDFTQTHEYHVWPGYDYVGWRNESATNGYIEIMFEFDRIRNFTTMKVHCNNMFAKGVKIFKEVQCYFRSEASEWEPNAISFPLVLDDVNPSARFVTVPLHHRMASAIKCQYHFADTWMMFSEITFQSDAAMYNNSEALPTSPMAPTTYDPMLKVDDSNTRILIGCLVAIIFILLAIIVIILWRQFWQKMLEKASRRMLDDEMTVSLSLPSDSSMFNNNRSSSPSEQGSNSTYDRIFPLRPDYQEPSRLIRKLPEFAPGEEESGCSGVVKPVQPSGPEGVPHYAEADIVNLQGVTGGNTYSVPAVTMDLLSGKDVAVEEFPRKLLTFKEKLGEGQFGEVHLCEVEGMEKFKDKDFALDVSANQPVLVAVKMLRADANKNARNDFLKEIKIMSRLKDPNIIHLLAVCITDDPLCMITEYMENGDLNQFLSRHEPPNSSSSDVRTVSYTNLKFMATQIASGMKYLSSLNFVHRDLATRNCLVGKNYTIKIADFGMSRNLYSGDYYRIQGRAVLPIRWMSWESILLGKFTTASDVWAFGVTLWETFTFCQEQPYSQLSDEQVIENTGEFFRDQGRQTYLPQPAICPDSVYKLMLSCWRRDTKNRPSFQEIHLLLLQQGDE
Sequence of UniProt P35368 (whole entry, looked up): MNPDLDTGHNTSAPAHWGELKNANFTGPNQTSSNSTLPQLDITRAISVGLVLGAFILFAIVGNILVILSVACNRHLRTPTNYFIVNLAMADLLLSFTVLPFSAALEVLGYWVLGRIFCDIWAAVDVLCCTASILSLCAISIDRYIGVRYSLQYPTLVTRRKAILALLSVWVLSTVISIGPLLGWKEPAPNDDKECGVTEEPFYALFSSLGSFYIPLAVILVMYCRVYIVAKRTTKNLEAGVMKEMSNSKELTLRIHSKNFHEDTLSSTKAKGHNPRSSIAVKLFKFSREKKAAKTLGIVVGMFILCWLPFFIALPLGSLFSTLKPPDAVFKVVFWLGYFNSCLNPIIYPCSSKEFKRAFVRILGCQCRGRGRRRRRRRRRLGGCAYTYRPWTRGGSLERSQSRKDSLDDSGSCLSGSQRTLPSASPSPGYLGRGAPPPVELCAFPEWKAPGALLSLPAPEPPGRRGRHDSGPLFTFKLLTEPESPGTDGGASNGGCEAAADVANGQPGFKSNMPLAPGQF
Sequence of UniProt Q86UE8 (whole entry, looked up): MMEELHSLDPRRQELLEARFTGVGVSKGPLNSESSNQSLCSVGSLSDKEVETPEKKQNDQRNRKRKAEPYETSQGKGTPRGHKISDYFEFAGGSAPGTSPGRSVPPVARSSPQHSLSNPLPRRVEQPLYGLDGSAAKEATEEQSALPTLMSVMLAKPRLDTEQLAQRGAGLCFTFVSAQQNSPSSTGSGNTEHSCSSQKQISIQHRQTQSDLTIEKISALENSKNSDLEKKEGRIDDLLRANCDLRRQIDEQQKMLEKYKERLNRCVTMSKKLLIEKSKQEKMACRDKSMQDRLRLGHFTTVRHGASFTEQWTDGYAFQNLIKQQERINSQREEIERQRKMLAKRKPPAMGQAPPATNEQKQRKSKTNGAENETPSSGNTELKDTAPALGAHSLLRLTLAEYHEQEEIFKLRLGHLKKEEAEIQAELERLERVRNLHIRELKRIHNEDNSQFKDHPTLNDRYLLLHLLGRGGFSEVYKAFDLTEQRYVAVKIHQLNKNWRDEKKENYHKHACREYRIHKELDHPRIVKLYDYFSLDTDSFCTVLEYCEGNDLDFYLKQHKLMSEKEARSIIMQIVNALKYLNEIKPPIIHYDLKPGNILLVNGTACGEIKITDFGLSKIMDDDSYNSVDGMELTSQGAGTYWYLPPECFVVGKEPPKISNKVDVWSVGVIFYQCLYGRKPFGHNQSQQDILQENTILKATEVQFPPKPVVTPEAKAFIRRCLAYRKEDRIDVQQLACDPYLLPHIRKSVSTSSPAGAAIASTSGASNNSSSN
Sequence of UniProt P32298 (whole entry, looked up): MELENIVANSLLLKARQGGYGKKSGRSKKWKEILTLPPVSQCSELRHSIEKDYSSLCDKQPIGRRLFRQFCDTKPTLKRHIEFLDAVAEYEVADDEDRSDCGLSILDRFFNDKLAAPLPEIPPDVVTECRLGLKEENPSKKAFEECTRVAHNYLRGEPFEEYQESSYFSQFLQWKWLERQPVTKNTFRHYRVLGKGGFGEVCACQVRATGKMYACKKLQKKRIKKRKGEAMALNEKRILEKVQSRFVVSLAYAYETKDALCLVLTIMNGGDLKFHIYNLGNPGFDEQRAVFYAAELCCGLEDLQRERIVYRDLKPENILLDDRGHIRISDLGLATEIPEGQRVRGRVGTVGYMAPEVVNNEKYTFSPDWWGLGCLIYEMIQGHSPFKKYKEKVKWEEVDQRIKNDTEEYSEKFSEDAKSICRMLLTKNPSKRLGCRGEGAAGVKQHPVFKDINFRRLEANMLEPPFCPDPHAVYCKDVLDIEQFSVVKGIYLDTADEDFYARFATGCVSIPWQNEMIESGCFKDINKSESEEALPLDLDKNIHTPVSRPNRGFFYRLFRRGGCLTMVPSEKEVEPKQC

Sample 1 — effect on: enzyme activity; action: inhibitor; concentration: 0.5 µM; baseline: control
SMILES: CN[C@@H]1C[C@H]2O[C@@](C)([C@@H]1OC)n1c3ccccc3c3c4c(c5c6ccccc6n2c5c31)C(=O)NC4
target	remaining activity
NEK3 (Homo sapiens, UniProt P51956)	91.9% and 107%
TLK2 (Homo sapiens, UniProt Q86UE8)	2.83%
GRK4 (Homo sapiens, UniProt P32298)	20.5%
MAPK14 (Homo sapiens, UniProt Q16539)	93.7% and 101%
DDR2 (Homo sapiens, UniProt Q16832)	3.83%

Sample 2 — target: His6 tag; technique: AlphaScreen counter screen; concentration: concentration not given
SMILES	inhibition
O=C1NC(=O)N(c2ccc(F)cc2)C(=O)C1=CNc1ccc2c(c1)OCO2	3.35%
CC(O)=C(C#N)C(=O)Nc1cc(Br)ccc1Br	22.2%
CN1C(=O)NC(=O)C(=Cc2ccc[nH]2)C1=O	-1.3%
COC(=O)c1ccc(NC=C2C(=O)NC(=O)N(c3ccccc3)C2=O)cc1	-3.35%
CN1C(=O)NC(=O)C(=CNc2ccc(F)cc2)C1=O	-0.95%
CN1C(=O)NC(=O)C(=NNc2ccc(Br)cc2)C1=O	-1.2%

Sample 3 — species: mouse; sample: microsomes or S9; concentration: 2 µM; time: 0.5 h
Structure (SMILES)	remaining compound
Cc1nn(C)c2ncnc(N3CCN4CCCC4C3)c12 (centres unmarked)	38.6%
COc1ccc2c(c1)C1(CCN(C(=O)c3ccc(C#N)cc3)C1)C(=O)N2 (centres unmarked)	45%
CC(C)NC(=O)c1cc(Cl)cc(Cl)c1NC(=O)c1cc(OCC(=O)C(C)(C)C)nn1-c1ncccc1Cl	63.1%
Cc1cc(Br)c2[nH]cc(CCN)c2c1	43.3%
Cn1nc(-c2cccc3c2CCNC3)c2c(Cl)cccc21	70.4%

Other studies, line by line
pknB: Serine/threonine-protein kinase PknB (pknB, Mycobacterium tuberculosis, UniProt P9WI81)
Sequence of UniProt P9WI81 (whole entry, looked up): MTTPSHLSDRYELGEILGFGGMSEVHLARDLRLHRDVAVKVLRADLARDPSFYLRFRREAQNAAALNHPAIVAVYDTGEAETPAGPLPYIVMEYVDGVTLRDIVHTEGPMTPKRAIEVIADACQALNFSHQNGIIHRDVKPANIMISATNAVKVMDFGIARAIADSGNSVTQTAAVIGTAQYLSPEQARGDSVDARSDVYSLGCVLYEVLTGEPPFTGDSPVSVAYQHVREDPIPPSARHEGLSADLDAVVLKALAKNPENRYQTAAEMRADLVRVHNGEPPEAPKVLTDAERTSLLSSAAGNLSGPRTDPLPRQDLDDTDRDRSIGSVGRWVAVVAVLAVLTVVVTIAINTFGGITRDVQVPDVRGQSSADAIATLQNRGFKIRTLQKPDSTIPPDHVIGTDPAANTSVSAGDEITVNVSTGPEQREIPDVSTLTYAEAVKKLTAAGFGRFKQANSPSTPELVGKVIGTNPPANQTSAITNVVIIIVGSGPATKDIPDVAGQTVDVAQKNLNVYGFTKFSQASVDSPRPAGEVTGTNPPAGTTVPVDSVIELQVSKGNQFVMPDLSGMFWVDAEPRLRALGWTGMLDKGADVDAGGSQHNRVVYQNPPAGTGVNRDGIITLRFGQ
SMILES	target	effect on	technique	concentration	quantity	result
CN(C)C(=O)Cn1cc(-c2nc([C@@](C)(c3ccc(-c4cnc(N)nc4)cc3)C3CC3)no2)cn1	CRK2 (Plasmodium falciparum, UniProt P61075)	cell-free assay	competition with immobilised ligand	1 µM	remaining binding	0%
O=C(Nc1ccc(Oc2ccc(F)cc2)cc1)N1CCc2ncccc2[C@H]1c1ccc(F)cc1	pknB	cell-free assay	competition with immobilised ligand	1 µM	remaining binding	86%
CNC(=O)c1cc(C(=O)NC2CC2)cn(Cc2ccccc2)c1=O	ADRA1B (Homo sapiens, UniProt P35368)	binding	radioligand binding	10 µM	inhibition	7.27%
O=C(NC[C@@H]1[C@H]2CN(C(=O)OCc3cc(C(F)(F)F)cc(C(F)(F)F)c3)C[C@@H]12)c1ccc2[nH]nnc2c1	pknB	cell-free assay	competition with immobilised ligand	1 µM	remaining binding	80%
